Measured values collected from several papers.
Compare with care: the assays were run in different laboratories. Several values in a cell are separate wells, animals, samples, runs or records. ± marks the error that the study gave.

| SMILES | tested on | test | test system | setting | scale | measurement | value |
| --- | --- | --- | --- | --- | --- | --- | --- |
| CCN1CCN(Cc2ccc(Nc3ncc(F)c(-c4cc(F)c5nc6n(c5c4)[C@H](C)CCC6)n3)nc2)CC1 | – | – | human advanced solid tumours | 100 mg, phase Ia monotherapy RECIST 1.1 | – | non-CR/non-PD | 0% |
| Cc1cccc(C(=O)O)c1N | THP-1 | pyroptotic LDH release | – | 2 µM, 40 min, with: LPS then nigericin | – | inhibition | 27% |
| CC(C)n1ncc2c(C(=O)NCC3(C)CNC3)cc(C3CC3)nc21 | coxsackievirus A6 | CPE | RD | 0.015 µM | – | cell protection | -1.3% and 1.3% |
| CCn1cc(-c2cc(Cn3ccoc3=N)cc3c2CCN([C@@H](C)c2cc(OC)ccn2)C3=O)c(C(F)(F)F)n1 | NCI-H1975 | cell growth, inhibitor | – | 120 h | – | EC50 | 0.00592 µM |
| Cc1cnc(C)cn1 | THP-1 | pyroptotic LDH release | – | 2 µM, 40 min, with: LPS then nigericin | – | inhibition | 16.3% |
| COc1cnc2cccc(N3CCc4c(cc(Cn5ccnc5C)cc4-c4cn(C)nc4C(F)(F)F)C3=O)c2c1 | JHUEM7 | cell growth | – | 120 h | – | EC50 | 6.63 µM |
| Cc1cc(O)c2c(c1)C(=O)c1cccc(O)c1C2=O | HK-2 co-cultured with HepaRG | MTT | – | 266.67 µM, 24 h | reference: untreated control | viability | 86.8 ± 15.6% |
| CN1CCOC(c2ccccc2)c2ccccc2C1 (centres unmarked) | THP-1 | pyroptotic LDH release | – | 2 µM, 40 min, with: LPS then nigericin | – | inhibition | 27.4% |
| CCn1cc(-c2cc(Cn3ccnc3)cc3c2CCN([C@H](c2cc(OC)ccn2)C2CC2)C3=O)c(C(F)(F)F)n1 | OV7 | cell growth, inhibitor | – | 120 h | – | EC50 | > 30 µM |
| Cc1ccc(S(=O)(=O)NC(=O)NN2CCCCCC2)cc1 | THP-1 | pyroptotic LDH release | – | 2 µM, 40 min, with: LPS then nigericin | – | inhibition | -4.37% |
| O=C(O)c1cc(O)c2c(c1)C(=O)c1cccc(O)c1C2=O | HK-2 co-cultured with HepaRG | MTT | – | 33.33 µM, 24 h | reference: untreated control | viability | 102 ± 13.8% |
| O=C(O)CNC(=O)Cc1ccccc1 | – | – | ventricular cardiomyocytes, C57BL/6 mouse | dose not given, 0.464 s | – | sarcomere length | 1.7 µm |
| Cn1cc(-c2ccc(-c3cncc(Cl)c3N3CCC4(CCNC4=O)CC3)cc2)cn1 | COLO 205 | gene expression, microarray, item: RSU1 mRNA | – | concentration not given, 2 h | reference: untreated cells | log2 fold change | 2.71 |
| OC(CCN1CCCCC1)(c1ccccc1)C1CC2C=CC1C2 (centres unmarked) | – | resting-state EEG | healthy elderly humans | oral, 2 mg, eyes closed, LS mean | – | power, EEG beta, O2-Pz | 6.8 µV² |

A few entries again:
| SMILES | tested on | test | test system | setting | scale | measurement | value |
| --- | --- | --- | --- | --- | --- | --- | --- |
| COc1cnc2cccc(N3CCc4c(cc(Cn5ccnc5C)cc4-c4cn(C)nc4C(F)(F)F)C3=O)c2c1 | JHUEM7 | cell growth | – | 120 h | – | EC50 | 6.63 µM |
| Cc1cc(O)c2c(c1)C(=O)c1cccc(O)c1C2=O | HK-2 co-cultured with HepaRG | MTT | – | 266.67 µM, 24 h | reference: untreated control | viability | 86.8 ± 15.6% |
